# Measurements collected from several papers.
# Each numbered part is a random draw from the data of one study; scales do not carry over between parts. Changes are numbered by the printed parent chain.

# Study 1
# Target: ABI1, truncated, D143A, DHFR fusion (Arabidopsis thaliana)
# Method: DHFR PCA, deep sequencing
# Medium: yeast
# Notes: methotrexate growth selection, single substitutions
# With: (+)-ABA 2500 µM
# Relative to: wild-type fitted maximum
# Direction: higher = stronger binding
# Parent: PYL1, truncated, DHFR fusion (Arabidopsis thaliana); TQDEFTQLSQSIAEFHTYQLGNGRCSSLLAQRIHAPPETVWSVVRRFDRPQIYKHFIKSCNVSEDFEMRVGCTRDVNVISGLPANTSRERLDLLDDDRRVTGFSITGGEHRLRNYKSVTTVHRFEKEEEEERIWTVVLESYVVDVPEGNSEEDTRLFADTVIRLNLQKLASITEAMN
Change,relative binding score [%]
I12E,77.4
R69E,90.7
H55W,88.4
I79Y,102
S42K,108
V161W,65.7
V121A,66.5
V137G,1.86
N165T,59.7
R99V,59.5
T154A,92.9
V70P,95.8
T39L,98
R49D,86.2
V136R,61.6

# Study 2
# Target: Prothrombin, mature alpha-thrombin (F2, Homo sapiens, UniProt P00734)
# Method: aptamer microarray, sandwich
# Form: DNA with 2'F-ANA
# Medium: in vitro
# Concentration: 200 nM
# Notes: whole 15-mer aptamer, many near background
# With: Cy3 exosite-II aptamer, 400 nM
# Direction: higher = stronger binding
# Sequence: GGTTGGTGTGGTTGG
Modification,mean fluorescence intensity
2'F-ANA at 1 3 4 7 9 12,415 a.u.
2'F-ANA at 1 5 7 8 12 14 15,48.7 a.u.
2'F-ANA at 1 2 3 4 5 6 7 12,121 a.u.
2'F-ANA at 3 5 6 9 10 11 12 13 14,53.9 a.u.
2'F-ANA at 1 4 7 8 10 11 13 14 15,47.3 a.u.
2'F-ANA at 1 3 4 5 6 8 11,55.1 a.u.
2'F-ANA at 1 2 3 4 7 9 10 11 13,51.2 a.u.
2'F-ANA at 3 4 6 10 11 12 13 15,241 a.u.
2'F-ANA at 4 7 10 11,86.6 a.u.
2'F-ANA at 1 2 3 4 5 6 9 10 12,53.9 a.u.
2'F-ANA at 5 7 8 9 12,220 a.u.
2'F-ANA at 1 2 3 4 6 8 11 13,120 a.u.
2'F-ANA at 4 5 7 8 9 12 13 15,97.4 a.u.
2'F-ANA at 1 2 3 4 5 6 8 9 10 11 13 14,52.1 a.u.
2'F-ANA at 2 3 4 5 6 8,133 a.u.
2'F-ANA at 2 4 5 6 7 8 9 10 12 13 14,69.7 a.u.
2'F-ANA at 5 7 8 10 12 14,44.4 a.u.
2'F-ANA at 1 2 3 4 5 7 12 13 14 15,49.2 a.u.
2'F-ANA at 4 5 8 12 15,147 a.u.
2'F-ANA at 1 2 3 4 5 6 7 8 9 14 15,53.7 a.u.
2'F-ANA at 2 3 7 9 10 11 12 13 14 15,257 a.u.
2'F-ANA at 2 3 4 6 7 11 12 13,429 a.u.
2'F-ANA at 2 3 4 5 6 8 9 10 14 15,47.2 a.u.
2'F-ANA at 1 2 3 5 6 8 10 11 12 14,49.9 a.u.
2'F-ANA at 1 4 8 9 11 13 14 15,50.5 a.u.

# Study 3
# Target: Histone acetyltransferase KAT6A, winged helix 2, GST fusion (KAT6A, Homo sapiens, UniProt Q92794, residues 85-181)
# Method: protein binding microarray
# Form: double-stranded DNA, one strand shown
# Medium: in vitro
# Concentration: not given
# Notes: 8-mer, flanks averaged, mean of 2 arrays, mostly near background
# Relative to: not given
# Direction: higher = stronger binding
# Residues (chain): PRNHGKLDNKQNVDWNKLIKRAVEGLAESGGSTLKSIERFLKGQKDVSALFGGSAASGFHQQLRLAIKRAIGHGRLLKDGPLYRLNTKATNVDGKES
Sequence,E-score
GTCTAGGA,-0.13
ATGAGTGC,-0.128
AAGTAATA,-0.177
CACCCACC,-0.0377
CCCATGAC,-0.000415
CGTGTGCA,-0.108
CCCCCTTA,-0.139
CACTGGGC,-0.0391
AGCTCAGC,-0.084
TCTAACAA,-0.0162
GGGAGGGA,0.175
AGATGAAG,-0.164
CGCACCAC,0.16
AAGGGATG,-0.0999
ACGTACTG,-0.175
CATCTAGA,0.0293
AACCAAAT,-0.00799
AAGTTTGA,-0.13
GCTGTCTA,-0.0215
AGGAAGCG,0.0178
ACTTGCAA,0.058

# Study 4
# Target: PABPC1L2, full length, GST fusion (mouse, UniProt A0ABA7IW68)
# Method: RNAcompete
# Form: RNA
# Medium: in vitro
# Concentration: 20 nM
# Notes: 7-mer, probes averaged, single round
# Relative to: mean of 7-mers
# Direction: higher = stronger binding
# Target sequence (chain): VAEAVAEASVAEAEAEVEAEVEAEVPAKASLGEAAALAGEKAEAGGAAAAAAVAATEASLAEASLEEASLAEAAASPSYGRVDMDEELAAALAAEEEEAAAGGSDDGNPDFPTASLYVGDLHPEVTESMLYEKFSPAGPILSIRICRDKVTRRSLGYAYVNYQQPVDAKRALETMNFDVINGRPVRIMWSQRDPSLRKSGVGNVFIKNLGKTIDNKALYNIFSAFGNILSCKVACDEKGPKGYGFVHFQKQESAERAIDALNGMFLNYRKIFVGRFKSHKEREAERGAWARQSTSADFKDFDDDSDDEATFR
Sequence,7-mer Z-score
GCGCAAU,-0.0373
CUGGUAG,-0.161
UCAUAGG,-0.188
CAAAUUG,0.269
GAAUAGG,0.0986
CCUUCGU,-0.465
AGUCAGA,-0.188
GCAUGGC,-0.0554
CCAAGGA,0.095
UUCUCUU,-0.481
GUAUCCC,-0.358
UCGCAGG,-0.133
UUAAAGG,0.24
CCCAGCC,-0.331
CUAAGUG,-0.106
CAAGGCU,-0.101
CAAUGUG,-0.0554
UAGUGCA,-0.0554
UGGCCUA,-0.144
CGCAUAG,-0.202
UGGUGGA,0.0605
GCAGAGC,-0.0736
GGUGCUG,0.202
UCUGGCC,-0.282
UAAUUGA,-0.0428

# Study 5
# Target: RING finger protein unkempt homolog, zinc fingers 1-6, GST-SBP tag (UNK, Homo sapiens, UniProt Q9C0B0, residues 30-357)
# UniProt Q9C0B0, sequence (30-357, looked up): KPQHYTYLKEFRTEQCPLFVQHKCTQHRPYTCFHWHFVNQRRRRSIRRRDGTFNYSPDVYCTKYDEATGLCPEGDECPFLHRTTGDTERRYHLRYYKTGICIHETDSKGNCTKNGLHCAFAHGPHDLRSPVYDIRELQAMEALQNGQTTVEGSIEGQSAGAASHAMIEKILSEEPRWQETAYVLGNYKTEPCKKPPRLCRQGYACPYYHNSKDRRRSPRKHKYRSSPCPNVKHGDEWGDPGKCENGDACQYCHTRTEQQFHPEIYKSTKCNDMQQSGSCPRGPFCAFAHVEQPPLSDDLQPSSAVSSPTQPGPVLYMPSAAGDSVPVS
# Method: RNA Bind-n-Seq
# Form: RNA
# Medium: in vitro
# Concentration: not given
# Notes: RNA with constant flanks, human-mouse chimeric sites, ends assumed
# Relative to: input RNA pool
# Direction: higher = stronger binding
# Constant ends, left off below: GGGAGUUCUACAGUCCGACGAUC … CAACAGAGGAUUGAGCAUCA
Sequence,bound/input enrichment [ratio]
AAUAGAGGAUCCACCUCCCAAAGUGCUGGGAGUAAAGGUGUGGCCACCACACCUAACUUGAUGGAUAUAUAUUUUUUUUAAUAUGAAUCUUCCUGUUCGUCCAGGGAGCAAGAACGGGUU,1.34
UUUCUACUGCAGCAAACGAUGCUAAGAAUUAAGGAUCCUAAGAAGUCCCUGGAUUUUUAUACGAGGGUUCUUGGAAUGACCCUCCUGCAGAAGCUUGACUUCCCUGCUAUGAAGUUCUCG,0.167
AAAGUGGACUAUGGCGAGUACAUGGAUAAAAACAAUGUGAGGCGGCAAGCAACAACAAUCAUAGCUGAUAACAUUAUAUUUCUGAGUGACCAGACAAAAGAGAAGGAAUAGAACGGAUGA,3
CUGUGCGGGUGACUGUCCUGGAGUGGCUGGAGUUCCCGCCGGAGCGCGGCCAGACUAAUUUUAGAAAAUGCCAAGUAGGAAAUUUGCUGAGGGUGAAGUGGUCAGAGGCCGAUGGCCUGG,1.71
AAAGCCCAAGUAUUUUGAAAAAACUCGAACAGAUUUGACAAGGGUAGCCAGCUUGGAGUCUAGCAACUUGCCAAUGUUGCUUACCAAUUUGGGGGCUGUUUUUCUUUUCUUCUUUCAAAU,0.244
CUGGGCUUCUCUUUUCUUUCUUUCCUUUAGGAAAAGCAGAUUAGACUGGUUGUAAGAAAAACAGAAGCCAUGUUUCGAAGACCUGUGUUACAGGUAUUUCGUCAGUUUGUAAGACAUGAG,0.297
UGUGCAUAUGAUGCUUGAGAUGGUUUUUGCAGAUGCAGAAAUCGCUGCAAGGUAAUCACAAUAGAUAAAAGUGGUAUUUUAAACCUUUGAAAUAAAUGGAUGUAACUGUACGUUGGUACA,0.777
GAUAAGAAAAGCUUGUUGGAGACCCGCUUGCAUGUCACUGGCAGAGAACUGAGGUCCCAAAUAGCUGAAACUUUCGGAUUUCAAGAAAAUUACAUCAAGAUCGUAAUAAAUAAGAAACAG,0.275
UCCCAAAUCCAGCAGCUAGAAGGAGCCUUGAGACAAACACUCCACACACAGGGAAGGCGAUAACAUUGUAAAUUGGUUUACAUUUUUUCCCCCUGUGUUUUCUAGGGGAGGUCAUAGUGC,0.382
UAAAUUAGGGCUGCCGUUUUCUGUUUCGCCCUGAGCUGCGGAAAGCCAGGCGGUUUUAUCUAGCUUAUACAAGGCUGCUGGUGUUCCCUCUUUUUUUCCACGAGGGUGUUUUUGGCUGCA,1.59
UCUUUGUGUAACUUAUCUGUAAAAGGUUCCCCCCCCCUACUGUCAAAAAAUAUGCAUGUAUAGUAAUUAGGACUUCAUUCCUCCAUGUUUUCUUCCCUUAUCUUACUGUCAUUGUCCUUA,2.1

# Study 6
# Target: Interferon regulatory factor 7, full length, phosphomimetic (IRF7, Homo sapiens, UniProt Q92985, residues 1-503, S471D/S472D/S475D/S476D/S477D/S483D/S484D/S487D)
# UniProt Q92985, sequence (whole entry, unmodified, looked up): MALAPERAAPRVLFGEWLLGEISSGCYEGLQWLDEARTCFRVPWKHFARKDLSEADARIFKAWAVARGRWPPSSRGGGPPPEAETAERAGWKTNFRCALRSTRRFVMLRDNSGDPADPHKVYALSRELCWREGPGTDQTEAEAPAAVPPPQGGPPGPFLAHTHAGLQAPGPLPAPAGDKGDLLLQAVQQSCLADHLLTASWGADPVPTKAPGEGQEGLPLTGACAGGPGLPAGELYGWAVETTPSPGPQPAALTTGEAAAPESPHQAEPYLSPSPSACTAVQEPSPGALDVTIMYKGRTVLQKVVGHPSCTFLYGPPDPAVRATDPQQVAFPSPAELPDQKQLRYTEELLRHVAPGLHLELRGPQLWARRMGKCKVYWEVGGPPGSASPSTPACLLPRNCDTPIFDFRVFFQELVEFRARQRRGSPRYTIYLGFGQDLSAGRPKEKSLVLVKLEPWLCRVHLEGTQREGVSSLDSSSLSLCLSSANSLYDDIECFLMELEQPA
# Method: protein-binding microarray
# Form: double-stranded DNA, one strand shown
# Medium: in vitro
# Concentration: 2200 nM top
# Notes: 60-bp whole probe
# With: salmon DNA 0.4 mg/ml
# Relative to: random background probes
# Direction: higher = stronger binding
# Constant ends, left off below: GCCTAGCAC … GTCTTGATTCGCTTGACGCTGCTG
Sequence,fitted relative affinity [z-score]
TTAGCACTGGGGACTGGATTAGTGCTA,-0.497
TTTGGTATCGGTCTCGGTTAGTGCTAG,1.47
TCAAGTCTGGGAGATGAAACTGTGCTA,-0.56
GACGGACTGGGGTATCGGGACGTGCTA,-0.849
TCAGATTTCTCAAACAGACTGTGCTAG,0.306
CTGCCTAACATGCTTCGAGATGTGCTA,0.502
GACGGTCTCCTTCTCATGACGTGCTAG,0.908
TCACATATCGGGGTGCGCACTGTGCTA,0.585
TTGGGTCTCCTACTGCTTTAGTGCTAG,0.666
TCACTTTTCTTTACTGAACTGTGCTAG,3.12
ATAGGACTGGGACTGGGTTAGTGCTAG,-0.712
TTTTTTTTTTTTCTGATCCAGTGCTAG,2.84
TCACTTTTTGCACTCTCACTGTGCTAG,2.6
TTAGTTATCGGGTATCGGTTAGTGCTA,1.35
GACGAGTTCAGTTCCGAGACGTGCTAG,0.753
GTAGGTATCGGGACTGGGTTAGTGCTA,-0.272

# Some of these lines once more (study 1):
Change,relative binding score [%]
I12E,77.4
R69E,90.7
H55W,88.4
I79Y,102
S42K,108
V161W,65.7
V121A,66.5
V137G,1.86
N165T,59.7
R99V,59.5
T154A,92.9
V70P,95.8
T39L,98
R49D,86.2
V136R,61.6
